Measured values from different studies.
Lines come from different studies, so protocols differ. “And” joins repeats or separate records; there may be more than shown. ± gives the spread as reported.
Chain of UniProt P11678 (whole entry, looked up): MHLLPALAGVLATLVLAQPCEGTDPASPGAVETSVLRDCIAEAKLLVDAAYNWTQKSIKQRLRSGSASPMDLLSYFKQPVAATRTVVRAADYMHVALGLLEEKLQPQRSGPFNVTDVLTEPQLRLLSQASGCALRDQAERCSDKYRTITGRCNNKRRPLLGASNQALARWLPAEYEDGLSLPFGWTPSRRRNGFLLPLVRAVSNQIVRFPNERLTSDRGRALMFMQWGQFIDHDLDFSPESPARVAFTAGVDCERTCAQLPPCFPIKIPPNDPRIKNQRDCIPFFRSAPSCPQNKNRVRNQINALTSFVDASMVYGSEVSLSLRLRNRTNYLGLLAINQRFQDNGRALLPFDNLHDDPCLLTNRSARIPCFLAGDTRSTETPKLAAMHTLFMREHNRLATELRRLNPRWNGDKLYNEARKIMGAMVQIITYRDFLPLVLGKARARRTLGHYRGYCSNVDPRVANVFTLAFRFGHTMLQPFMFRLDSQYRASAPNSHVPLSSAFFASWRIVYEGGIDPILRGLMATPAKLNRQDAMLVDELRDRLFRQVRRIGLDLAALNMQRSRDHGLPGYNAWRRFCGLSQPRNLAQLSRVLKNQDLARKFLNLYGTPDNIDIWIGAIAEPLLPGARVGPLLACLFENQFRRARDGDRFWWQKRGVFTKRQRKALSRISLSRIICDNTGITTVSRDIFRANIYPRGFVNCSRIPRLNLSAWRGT
Chain of UniProt P53667 (whole entry, looked up): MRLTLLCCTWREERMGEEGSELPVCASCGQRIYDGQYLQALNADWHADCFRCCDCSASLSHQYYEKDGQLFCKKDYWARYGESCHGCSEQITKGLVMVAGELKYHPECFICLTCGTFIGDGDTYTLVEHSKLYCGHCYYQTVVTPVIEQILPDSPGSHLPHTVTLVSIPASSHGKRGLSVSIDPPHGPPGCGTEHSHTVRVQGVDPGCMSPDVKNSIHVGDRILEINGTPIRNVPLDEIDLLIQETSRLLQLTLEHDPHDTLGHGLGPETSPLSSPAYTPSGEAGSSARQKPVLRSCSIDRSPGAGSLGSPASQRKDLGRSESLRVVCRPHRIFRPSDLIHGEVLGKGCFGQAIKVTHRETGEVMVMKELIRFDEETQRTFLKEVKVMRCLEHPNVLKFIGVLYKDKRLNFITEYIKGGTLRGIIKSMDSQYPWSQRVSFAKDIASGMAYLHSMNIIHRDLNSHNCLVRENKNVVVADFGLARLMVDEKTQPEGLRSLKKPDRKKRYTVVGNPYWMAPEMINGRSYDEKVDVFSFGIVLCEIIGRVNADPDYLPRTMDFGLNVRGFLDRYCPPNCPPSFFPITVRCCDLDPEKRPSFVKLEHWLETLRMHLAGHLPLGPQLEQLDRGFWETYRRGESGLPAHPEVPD
Chain of UniProt O43781 (whole entry, looked up): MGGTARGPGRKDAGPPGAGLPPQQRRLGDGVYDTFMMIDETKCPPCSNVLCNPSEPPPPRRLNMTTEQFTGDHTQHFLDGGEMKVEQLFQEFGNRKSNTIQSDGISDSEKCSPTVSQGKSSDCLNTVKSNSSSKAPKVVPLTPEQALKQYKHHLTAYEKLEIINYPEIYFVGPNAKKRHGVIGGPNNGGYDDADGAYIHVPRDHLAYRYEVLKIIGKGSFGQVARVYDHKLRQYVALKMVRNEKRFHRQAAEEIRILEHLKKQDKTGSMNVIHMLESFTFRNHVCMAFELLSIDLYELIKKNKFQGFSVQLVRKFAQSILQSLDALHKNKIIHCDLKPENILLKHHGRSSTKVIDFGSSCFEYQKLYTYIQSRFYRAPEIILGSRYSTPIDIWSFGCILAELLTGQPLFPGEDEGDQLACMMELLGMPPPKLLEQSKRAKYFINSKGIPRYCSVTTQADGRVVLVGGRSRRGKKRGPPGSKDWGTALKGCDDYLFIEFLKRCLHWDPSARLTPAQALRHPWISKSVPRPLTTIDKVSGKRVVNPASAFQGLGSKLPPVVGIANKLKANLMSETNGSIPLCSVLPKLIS
Chain of UniProt Q02763 (whole entry, looked up): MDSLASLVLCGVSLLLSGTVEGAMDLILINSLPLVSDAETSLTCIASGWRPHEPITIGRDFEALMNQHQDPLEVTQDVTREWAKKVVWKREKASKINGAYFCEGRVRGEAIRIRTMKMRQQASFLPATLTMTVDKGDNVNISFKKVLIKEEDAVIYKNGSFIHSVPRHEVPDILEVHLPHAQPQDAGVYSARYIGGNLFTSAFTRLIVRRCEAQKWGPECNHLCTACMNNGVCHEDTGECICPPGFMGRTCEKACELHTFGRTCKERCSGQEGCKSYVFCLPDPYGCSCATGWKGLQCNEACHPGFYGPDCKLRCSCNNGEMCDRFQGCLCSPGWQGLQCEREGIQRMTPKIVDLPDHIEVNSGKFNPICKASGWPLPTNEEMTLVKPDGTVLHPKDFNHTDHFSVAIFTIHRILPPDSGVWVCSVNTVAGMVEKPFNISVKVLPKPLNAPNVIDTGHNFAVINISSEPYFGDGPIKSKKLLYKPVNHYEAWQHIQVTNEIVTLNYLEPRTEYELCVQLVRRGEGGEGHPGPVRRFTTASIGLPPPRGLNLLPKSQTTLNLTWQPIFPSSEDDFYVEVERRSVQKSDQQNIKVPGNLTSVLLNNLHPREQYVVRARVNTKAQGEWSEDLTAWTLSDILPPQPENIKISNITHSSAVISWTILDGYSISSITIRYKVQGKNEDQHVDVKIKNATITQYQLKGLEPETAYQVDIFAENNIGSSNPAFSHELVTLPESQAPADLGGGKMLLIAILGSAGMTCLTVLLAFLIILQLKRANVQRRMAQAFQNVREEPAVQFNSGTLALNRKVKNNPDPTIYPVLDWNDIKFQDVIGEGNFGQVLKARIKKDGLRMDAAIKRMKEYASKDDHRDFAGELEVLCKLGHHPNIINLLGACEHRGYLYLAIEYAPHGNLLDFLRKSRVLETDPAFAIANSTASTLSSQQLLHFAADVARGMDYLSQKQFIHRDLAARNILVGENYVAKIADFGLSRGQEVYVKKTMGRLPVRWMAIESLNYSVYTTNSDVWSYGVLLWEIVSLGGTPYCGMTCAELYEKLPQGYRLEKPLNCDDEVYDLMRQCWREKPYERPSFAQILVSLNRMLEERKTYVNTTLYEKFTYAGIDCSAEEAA
Chain of UniProt Q13976 (whole entry, looked up): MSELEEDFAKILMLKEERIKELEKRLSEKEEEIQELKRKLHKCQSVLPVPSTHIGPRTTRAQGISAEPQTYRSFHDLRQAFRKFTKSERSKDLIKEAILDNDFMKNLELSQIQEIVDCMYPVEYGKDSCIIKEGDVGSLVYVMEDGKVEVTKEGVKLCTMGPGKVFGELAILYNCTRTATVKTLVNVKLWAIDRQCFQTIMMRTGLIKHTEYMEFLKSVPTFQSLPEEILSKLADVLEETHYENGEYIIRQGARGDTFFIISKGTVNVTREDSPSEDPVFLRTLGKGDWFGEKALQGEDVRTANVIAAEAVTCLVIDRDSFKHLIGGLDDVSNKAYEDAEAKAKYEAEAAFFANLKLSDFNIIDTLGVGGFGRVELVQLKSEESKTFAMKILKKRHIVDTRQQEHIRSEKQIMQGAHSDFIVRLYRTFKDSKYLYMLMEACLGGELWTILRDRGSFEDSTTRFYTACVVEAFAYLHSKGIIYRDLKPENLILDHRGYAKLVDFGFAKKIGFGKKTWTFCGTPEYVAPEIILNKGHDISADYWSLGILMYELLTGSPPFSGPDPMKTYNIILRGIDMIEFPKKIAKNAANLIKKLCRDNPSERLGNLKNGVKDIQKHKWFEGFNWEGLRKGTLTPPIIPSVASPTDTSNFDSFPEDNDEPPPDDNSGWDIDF
Chain of UniProt Q16566 (whole entry, looked up): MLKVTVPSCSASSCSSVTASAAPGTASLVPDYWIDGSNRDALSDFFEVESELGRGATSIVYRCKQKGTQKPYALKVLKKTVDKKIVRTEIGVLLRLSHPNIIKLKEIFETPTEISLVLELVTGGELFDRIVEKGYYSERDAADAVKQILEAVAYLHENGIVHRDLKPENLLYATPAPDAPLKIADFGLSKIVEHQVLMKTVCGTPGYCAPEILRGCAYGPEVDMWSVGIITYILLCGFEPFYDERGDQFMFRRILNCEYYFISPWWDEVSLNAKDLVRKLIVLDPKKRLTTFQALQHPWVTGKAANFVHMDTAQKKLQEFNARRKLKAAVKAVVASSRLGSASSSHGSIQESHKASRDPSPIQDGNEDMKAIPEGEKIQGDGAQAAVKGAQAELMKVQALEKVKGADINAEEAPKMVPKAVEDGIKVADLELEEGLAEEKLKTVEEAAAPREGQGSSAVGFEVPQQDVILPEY
Chain of UniProt P51451 (whole entry, looked up): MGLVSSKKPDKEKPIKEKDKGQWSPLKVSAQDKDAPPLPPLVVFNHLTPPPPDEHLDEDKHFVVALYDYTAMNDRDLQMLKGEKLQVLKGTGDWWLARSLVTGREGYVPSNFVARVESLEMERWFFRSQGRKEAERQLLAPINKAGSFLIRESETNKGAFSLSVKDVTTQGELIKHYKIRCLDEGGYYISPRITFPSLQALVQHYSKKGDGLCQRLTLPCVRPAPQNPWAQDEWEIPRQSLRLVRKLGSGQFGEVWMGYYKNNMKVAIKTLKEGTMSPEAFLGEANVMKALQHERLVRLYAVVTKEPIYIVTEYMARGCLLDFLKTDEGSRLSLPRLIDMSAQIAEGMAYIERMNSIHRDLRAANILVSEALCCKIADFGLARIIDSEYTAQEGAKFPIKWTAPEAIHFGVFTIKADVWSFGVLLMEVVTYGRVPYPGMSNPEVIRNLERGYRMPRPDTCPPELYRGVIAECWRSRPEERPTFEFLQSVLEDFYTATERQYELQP

SMILES | target | test | setting | how to read | remaining activity
C=CC(=O)N1CCC[C@@H](n2nc(-c3ccc(Oc4ccccc4)cc3)c3c(N)ncnc32)C1 | Dual specificity tyrosine-phosphorylation-regulated kinase 3 (DYRK3, Homo sapiens, UniProt O43781) |  | 0.1 µM |  | 108%
COc1cc(-c2cncc3c2CN(C)Cc2cc(N4CCNCC4)ccc2-3)cc(OC)c1OC | Calcium/calmodulin-dependent protein kinase type IV (CAMK4, Homo sapiens, UniProt Q16566) | kinase activity | 1 µM, human enzyme, with: ATP 10 µM | reference: DMSO control | 107%
O=C(NC1CCC1)c1ccc2nc(-c3cccc(NS(=O)(=O)NCCN4CCCCC4)c3)cn2c1 | LIM domain kinase 1 (LIMK1, Homo sapiens, UniProt P53667) | enzyme activity | 10 µM |  | 100%
NC/C(=C\F)COc1cccc(Cn2c(=S)[nH]c(=O)c3[nH]cnc32)c1 | Eosinophil peroxidase (Homo sapiens, UniProt P11678) | H2O2 electrode | 2.5 µM | reference: control | 170% and 162%
O=C(O)c1ccc(Nc2ncc3c(n2)-c2ccc(Cl)cc2C(c2c(F)cccc2F)=NC3)cc1 | human PAR-1Bα(h) | kinase activity | 1 µM |  | 101%
COc1ccc(F)cc1C(=O)NCc1ccc(-c2nn([C@@H](C)C(F)(F)F)c(N)c2C(N)=O)cc1 | Tyrosine-protein kinase Blk (BLK, Homo sapiens, UniProt P51451) |  | 1000 nM, with: ATP at Km |  | 72.8 ± 2.2%
COc1cc(F)ccc1-c1ncnc(Nc2cccc(C[S@](C)(=N)=O)c2)n1 | Angiopoietin-1 receptor (TEK, Homo sapiens, UniProt Q02763) | kinase activity | 10 µM, with: ATP 10 µM |  | 81%
Cc1cc(Nc2cc(N3CCN(C)CC3)nc(Sc3ccc(NC(=O)C4CC4)cc3)n2)[nH]n1 | cGMP-dependent protein kinase 1 (PRKG1, Homo sapiens, UniProt Q13976) | kinase activity, KinaseProfiler | 0.03 µM, species human | reference: control | 96%

For quick reference, copied from above:
SMILES | target | test | setting | how to read | remaining activity
COc1ccc(F)cc1C(=O)NCc1ccc(-c2nn([C@@H](C)C(F)(F)F)c(N)c2C(N)=O)cc1 | Tyrosine-protein kinase Blk (BLK, Homo sapiens, UniProt P51451) |  | 1000 nM, with: ATP at Km |  | 72.8 ± 2.2%
